Measurements of several laboratories.
Each line is one published result; not all experiments were run side by side. ± gives the spread as reported.

N=C(N/N=C/c1ccccn1)N/N=C/c1ccccn1
selectivity ratio (PANC-1; crystal violet; 72 h; baseline: IC50 IMR-90 over IC50 PANC-1): 19.8

Cc1c(C(=O)Nc2ccn(C)n2)ncn1Cc1cccc(C(F)(F)F)c1
αS Ser129 phosphorylation (M17D expressing αS E46K; western blot; 10 µM, 48 h, pS129 to total αS ratio): decreased

CC(=O)OC[C@H]1O[C@@H](Sc2sc(C(=O)c3ccc(Br)cc3)c(N)c2-c2nc3ccccc3s2)[C@H](OC(C)=O)[C@@H](OC(C)=O)[C@H]1OC(C)=O
growth (UACC-257; SRB; 10 µM, 48 h; baseline: untreated): 104%

Cc1ccc(S(=O)(=O)Nc2ccc(O)c3ccccc23)c(C)c1
growth inhibition (PANC-1; 5 µM, day 4; baseline: DMSO): > 50%

C(=C/c1ccccc1)/c1ccccc1
lowest effective concentration (KG-1a; apoptosis, item: caspase-3 activity; 24 h, lowest dose with significant induction; baseline: vehicle): 10 µM

COc1ccc(CN2C(=O)C(=O)c3cc(NC(C)=O)ccc32)cc1
Bcl-xL protein level (K562; western blot; 1 to 10 µM, 24 h): decreased

COc1cc(CNC(=O)C[C@H](C)CCC=C(C)C)ccc1OCc1cn(-c2ccc([N+](=O)[O-])cc2)nn1
growth percent (NCI-H23; SRB; 10 µM, 48 h): 45.5%

N=C(N/N=C/c1ccc[nH]1)N/N=C/c1ccc[nH]1
selectivity ratio (PANC-1; crystal violet; 72 h; baseline: IC50 hTERT-HPNE over IC50 PANC-1): 18.1

CCC(=C(c1ccc(Cl)cc1)c1ccc(OCCN(CC)CC)cc1)c1ccc(OC)cc1
alkaline phosphatase activity (Ishikawa; 1 µM, 72 h, unit not given; baseline: DMSO): 1.89 ± 0.45

N=C(N/N=C/c1cc2ccccc2[nH]1)N/N=C/c1cc2ccccc2[nH]1
selectivity ratio (PANC-1; crystal violet; 72 h; baseline: IC50 hTERT-HPNE over IC50 PANC-1): 1.3

C=CC(=O)Nc1ccccc1Nc1nc(Nc2ccnc(C#CCCNC(=O)OC3CC/C=C/CCC3)c2)ncc1Cl (stereo not shown)
ERK1/2 protein level (A-375; degrader, immunoblot; concentration not given): no effect

Cc1c(C)n(-c2c(C(C)C)cccc2C(C)C)c(=[Se])n1-c1c(C(C)C)cccc1C(C)C.[Cl][Ag]
resistance factor (A2780 ADR; MTT; baseline: A2780 ADR over A2780): 0.6

Cc1ccc2oc(-c3c4c(N)n[nH]c(=O)c4nn3-c3ccc(NC(=O)/C=C/CN(C)C)cc3)c(C)c2c1
FGFR1 phosphorylation (KG-1; Western blot; concentration not given): inhibited

CC(=C(c1ccc(O)cc1)c1ccc(Cl)cc1)c1ccc(Cl)cc1
GI50 (HOP-92; cell growth or viability, SRB): 460 nM

COc1cc(CN2CCN(c3ccc(OC(F)(F)F)cc3)CC2)c2cc3[n+](cc2c1O)CCc1cc2c(cc1-3)OCO2
therapeutic index (Ca-Ski and MDCK; SRB; 48 h; baseline: CC50 MDCK over IC50 Ca-Ski): 32

COc1cc(CNC(=O)C[C@H](C)CCC=C(C)C)ccc1OCc1cn(-c2ccc(C#N)cc2)nn1
growth percent (NCI-H23; SRB; 10 µM, 48 h): 64.5%

CCC(C)n1ncn(-c2ccc(N3CCN(c4ccc(OCC5COC(Cn6cncn6)(c6ccc(Cl)cc6Cl)O5)cc4)CC3)cc2)c1=O (stereo not shown)
minimum effective concentration (hiPSC cardiac tissues 3D; active force; 15 min per concentration, paced at 1 Hz serum-free): 3 µM

COc1ccc(C(=O)n2c(C)c(Cc3ccccc3O[C@@H](C)C(=O)O)c3cc(OC(F)(F)F)ccc32)cc1
mRNA level (3T3-L1 preadipocytes; qRT-PCR, item: aP2; concentration not given): increased

CC/C=C\C/C=C\C/C=C\C/C=C\C/C=C\C/C=C\CCC(=O)Nc1ccn(C2OC(CO)C(O)C2(F)F)c(=O)n1 (stereo not shown)
GI50 (SK-MEL-5; cell growth or viability, SRB): 290 nM

CCC(=C(c1ccc(Cl)cc1)c1ccc(OCCCN(C)C)cc1)c1ccc(OC)cc1
alkaline phosphatase activity (Ishikawa; estrogenic activity, agonist; 100 nM, 72 h, unit not given; baseline: DMSO): 1.86 ± 0.73

CC(C)c1cccc(C(C)C)c1-n1ccn(-c2c(C(C)C)cccc2C(C)C)c1=[Se].[Cl][Ag]
resistance factor (A2780 ADR; MTT; baseline: A2780 ADR over A2780): 0.5

COc1cc(CNC(=O)C[C@H](C)CCC=C(C)C)ccc1OCc1cn(-c2cccc([N+](=O)[O-])c2)nn1
growth percent (SN12C; SRB; 10 µM, 48 h): 96.6%

N=C(N/N=C/c1ccccc1)N/N=C/c1ccccc1
selectivity ratio (PANC-1; crystal violet; 72 h; baseline: IC50 hTERT-HPNE over IC50 PANC-1): 2.1

CCOC(=O)C1NC(c2ccc[n+](C)c2)C23c4c5c6c7c8c9c(c%10c%11c2c2c4c4c%12c5c5c6c6c8c8c%13c9c9c%10c%10c%11c%11c2c2c4c4c%12c%12c5c5c6c8c6c8c%13c9c9c%10c%10c%11c2c2c4c4c%12c5c6c5c8c9c%10c2c45)C713 (stereo not shown)
CC50 (BCBL1; cell growth or viability; 24 h): 10900 nM

COc1cc2c(cc1OC)CC(=O)N(C[C@H]1CCCN(CCOc3ccc(F)cc3)C1)CC2
inhibition (mouse VTA dopamine neurons; firing rate, cell-attached recording; 750 µM, 3 min): 87.8%

CCc1cccc(CC)c1NC(=O)c1nn(C)c2c1CCc1cnc(Nc3ccc(N4CCN(C)CC4)cc3OC)nc1-2
cells entering anaphase (HeLa H2B-YFP; mitotic timing, live cell imaging; 50 and 100 nM, within 15 min): ~100%

O=C(N1CCCC1)n1cc(-c2ccc(-c3ccccc3)cc2)nn1
SILAC ratio (mouse T-cells; N-terminal labelling enrichment, item: S100A6 N-terminal peptides; 1 nM, 6 h, protein median; baseline: DMSO): 1.07 ± 0.11

COc1cc(CN2CCN(c3ccccc3F)CC2)c2cc3[n+](cc2c1O)CCc1cc2c(cc1-3)OCO2
therapeutic index (Ca-Ski and MDCK; SRB; 48 h; baseline: CC50 MDCK over IC50 Ca-Ski): 27.3

CC(Cc1ccc(Cl)cc1)=C(c1ccc(Cl)cc1)c1ccc(OCCN(C)C)cc1
GI50 (NCI-H23; cell growth or viability, SRB): 4540 nM

COc1cc(CNC(=O)C[C@H](C)CCC=C(C)C)ccc1OCc1cn(-c2ccc(Br)cc2)nn1
growth percent (TK-10; SRB; 10 µM, 48 h): 109%

COc1ccc(C=C2SC(N3N=C(c4cccs4)CC3c3ccc(F)cc3)=NC2=O)cc1 (stereo not shown)
late apoptotic cells (T47D; annexin V-FITC/PI flow cytometry; concentration not given): 19%

CC1=CC(C)(C)N=C(Nc2nc(C)c3cc(C)cc(C)c3n2)N1
NADH level increase (activated PBMC; 1 µM, 0.5 h): 40.1%

CN1CCCNC(=O)c2cccc(c2)C(=O)NCCCN(C)CCCNc2cccc3c2C(=O)c2cccc(c2C3=O)NCCC1
mRNA level (SAS; item: hTERT; concentration not given, 6 h): decreased

CC(CCC(=O)NCc1ccc(C(=O)NO)cc1)C1CCC2C3C(O)CC4CC(O)CCC4(C)C3CCC12C (stereo not shown)
cell proliferation (polycystic liver disease cholangiocytes (human); CFSE flow cytometry; 2 and 10 µM, 48 h): inhibited

O=Cc1c(O)ccc2ccccc12
log2 fold change (HUVEC; RNA sequencing, item: BEX1; 75 µM, 24 h; baseline: DMSO): 2.49

C=C(C)[C@@H]1CC[C@]2(C(=O)OCO/N=[N+](\[O-])N3CCCC3)CC[C@]3(C)[C@H](CC[C@@H]4[C@@]5(C)CC[C@H](OC(C)=O)C(C)(C)[C@@H]5CC[C@]43C)[C@@H]12
early apoptotic cells (B16-F10; Annexin V/PI flow cytometry; 0.25 µM, 36 h): 3.17%

COc1cc(CNC(=O)C[C@H](C)CCC=C(C)C)ccc1OCc1cn(-c2cccc(Cl)c2)nn1
growth percent (SK-MEL-5 melanoma cells; SRB; 10 µM, 48 h): 89.5%

CC1[C@H](O)CC(=C/C=C2\CCC[C@]3(C)[C@@H]([C@H](C)CCCCO)CC[C@@H]23)C[C@H]1O (stereo partly shown)
EC50 ratio (rat osteosarcoma cells; reporter gene, luciferase, item: CYP24A1 (24-hydroxylase) promoter; baseline: compound over 1α,25-dihydroxyvitamin D3): 30

COc1cc(CNC(=O)C[C@H](C)CCC=C(C)C)ccc1OCc1cn(-c2ccc(Cl)cc2Cl)nn1
growth percent (NCI-H322M; SRB; 10 µM, 48 h): 95.2%

COc1ccc([C@@H]2CC(=O)c3c(O)cc(O[C@@H]4O[C@H](CO[C@@H]5O[C@@H](C)[C@H](O)[C@@H](O)[C@H]5O)[C@@H](O)[C@H](O)[C@H]4O)cc3O2)cc1O
gap closure (A549; cell migration, scratch; 50 µg/mL, 72 h): 14 ± 0.83%

O=C(/C=C/c1ccc2ccccc2c1)NO
LysoTracker signal (SK-N-BE(2)-C; flow cytometry; 5.0 µM, unit not given; baseline: control): 1.7 ± 0.04

O=C1c2c(O)cc(O)cc2-c2c(-c3ccc(O)cc3)oc3cc(O)cc1c23
upregulated protein count (LCC2 control shRNA; label-free MS proteomics; 10 µM): 233

COC(=O)CC[C@@H](NC(=O)[C@@H](Cc1ccc(OP(=O)(O)O)cc1)NC(=O)[C@@H](Cc1ccccc1)NC(=O)[C@@H](Cc1ccccc1)NC(=O)Cc1ccc2ccccc2c1)C(=O)OC
viability (SAOS-2; MTT; 10 µM, with: zVAD-fmk 45 µM): 25%

COc1cc(CNC(=O)C[C@H](C)CCC=C(C)C)ccc1OCc1cn(-c2ccccc2F)nn1
growth percent (NCI-H322M; SRB; 10 µM, 48 h): 92.7%

CC(C)C[C@@H](NC(=O)[C@@H](CC(C)C)NC(=O)[C@@H](CO)NC(=O)[C@@H](Cc1c[nH]cn1)NC(=O)[C@@H](CC(C)C)NC(=O)[C@@H](CO)NC(=O)[C@@H](CCCNC(=N)N)NC(=O)[C@@H](CO)NC(=O)[C@H](N)Cc1ccccc1)C(=O)NCC(=O)NCCCCCC(=O)N[C@H](CCCNC(=N)N)C(=O)N[C@H](CCCNC(=N)N)C(=O)N[C@H](CCCNC(=N)N)C(=O)N[C@H](CCCNC(=N)N)C(=O)N[C@H](CCCNC(=N)N)C(=O)N[C@H](CCCNC(=N)N)C(=O)N[C@H](CCCNC(=N)N)C(=O)N[C@H](CCCNC(=N)N)C(=O)NCC(=O)N[C@@H](CS)C(=O)O
time to PI leakage (KG-1a; 10 µM, 37 °C, 10% FBS): ≤ 20 min

COc1cc(CNC(=O)C[C@H](C)CCC=C(C)C)ccc1O
growth percent (NCI-H23; SRB; 10 µM, 48 h): 94.1%

COc1ccc(C2=Nn3c(NN=C4C(=O)N(C)c5ccc(Br)cc54)nnc3SC2)cc1
inhibition (UACC-257; cell growth or viability, SRB; 10 µM): 19%

CC(=O)OC[C@H]1O[C@@H](Sc2sc(C(=O)c3ccc(C)cc3)c(N)c2-c2nc3ccccc3s2)[C@H](OC(C)=O)[C@@H](OC(C)=O)[C@@H]1OC(C)=O
growth (SK-MEL-5; SRB; 10 µM, 48 h; baseline: untreated): 45.5%

CCCC(CCC)C(=O)[O][Pt]([NH2])([NH2])([Cl])([Cl])[O]C(=O)c1ccccc1OC(C)=O
depolarised mitochondria cells (PSN1; 1 µM, 24 h): 25 to 30%

COc1cc(/C=C/c2cc(/C=C/c3ccc(O)c(OC)c3)n(-c3ccc([N+](=O)[O-])cc3[N+](=O)[O-])n2)ccc1O
inhibition (Sf9; cell growth, MTT; 100 µM, 72 h): 91.8%

COc1cc(/C=C/C(=O)/C=C/c2ccc(O)c(OC)c2)ccc1O
mRNA level (CEM-T HIV-1 infected; RT-qPCR, item: HIV-1 gag and env; 1 µM, 48 h): decreased

CC(C)NCC(O)COc1cccc2ccccc12 (racemic)
minimum effective concentration (hiPSC cardiac tissues 3D; active force; 15 min per concentration, paced at 1 Hz serum-free): 3 µM

Some of these lines once more:
CC(CCC(=O)NCc1ccc(C(=O)NO)cc1)C1CCC2C3C(O)CC4CC(O)CCC4(C)C3CCC12C (stereo not shown)
cell proliferation (polycystic liver disease cholangiocytes (human); CFSE flow cytometry; 2 and 10 µM, 48 h): inhibited

O=Cc1c(O)ccc2ccccc12
log2 fold change (HUVEC; RNA sequencing, item: BEX1; 75 µM, 24 h; baseline: DMSO): 2.49

C=C(C)[C@@H]1CC[C@]2(C(=O)OCO/N=[N+](\[O-])N3CCCC3)CC[C@]3(C)[C@H](CC[C@@H]4[C@@]5(C)CC[C@H](OC(C)=O)C(C)(C)[C@@H]5CC[C@]43C)[C@@H]12
early apoptotic cells (B16-F10; Annexin V/PI flow cytometry; 0.25 µM, 36 h): 3.17%
